Measurements collected from several papers.
Each line is one published result; not all experiments were run side by side. Numbers after ± are the reported error.

COCCN(CC(N)=O)C(=O)CN(CCOC)C(=O)CN(CCOC)C(=O)CN(CCOC)C(=O)CN(CCOC)C(=O)CN(CCOC)C(=O)CN(CCC(=O)O)C(=O)CN(CCCCN)C(=O)CN(CCOC)C(=O)CN(CCOC)C(=O)CN(CCOC)C(=O)CN(CCOC)C(=O)CN(CCOC)C(=O)CN(CCOC)C(=O)C(Cc1ccccc1)NC(C)=O (stereo not shown)
pKa of NH2 group (potentiometric titration with KOH; 100 x 1 mM KCl): 10.2

COc1ccc2cc(-c3ccc(-c4ccc(C)cn4)nc3)oc2c1
fluorescence lifetime (TCSPC; MeOH): 2.18 ns

C[C@H](CN(C)Cc1ccccc1)NC(=O)c1ccc(-c2noc(C(F)(F)[18F])n2)cc1
brain-to-heart ratio (PET; Sprague-Dawley rat, female, brain and heart; intravenous, 60 min; relative to: brain SUV over heart SUV): 2.29 ± 0.22

COCC1CN(C2CCN(c3cc(OC)c(Nc4ncc(Br)c(Nc5ccc6c(c5P(C)(C)=O)OCCO6)n4)cc3C)CC2)C1
treatment-related ALT increased, all grades (human patients; oral, 10 to 240 mg once daily): 22.2%

Cc1ccc(OCC(=O)O)cc1
AUC(0-last) ratio (female Sprague-Dawley rat, plasma; intravenous, 1.0 mg/kg of parent drug; relative to: compound over parent drug): 3.38

CCC(C)(C)NCC(=O)O
logP (shake flask; water; 24 h): -1.28

CCCC[C@H](NC(=O)CN1CCC(NC(=O)CN2CCN(CC(=O)O)CCN(CC(=O)O)CCN(CC(=O)O)CC2)CC1)C(=O)N[C@H]1CC(=O)NCCCC[C@@H](C(N)=O)NC(=O)[C@H](Cc2c[nH]c3ccccc23)NC(=O)[C@H](CCCNC(=N)N)NC(=O)[C@@H](Cc2ccccc2)NC(=O)[C@H](Cc2c[nH]cn2)NC1=O
tumour to kidney ratio (biodistribution; C57BL/6J mouse male tumour-bearing; 2 h post injection, unblocked; relative to: tumour over kidney): 4 ± 0.9

N=C(N)NCCC[C@@H]1NC(=O)[C@H](Cc2c[nH]c3ccccc23)NC(=O)[C@@H](CC2CCCCC2)NC(=O)[C@@H]2CCCN2C(=O)[C@@H](NC(=O)CCc2ccccc2)CCCNC1=O
apparent peripheral volume (V2/F) (C57BL/6J mice, spinal cord; oral, 1 mg/kg, two-compartment model): < 0.001 µg/(ng/g)

O=S1(=O)CC2CCCCC2CS1 (stereo not shown)
AUC(0-24h) (male Sprague-Dawley rat, plasma; oral, 9 mg/kg, formulated with β-cyclodextrin): 3150 ± 381 ng·h/mL

CCCC[C@H](NC(=O)CNC(=O)CNC(=O)CN1CCN(CC(=O)O)CCN(CC(=O)O)CCN(CC(=O)O)CC1)C(=O)N[C@H]1CC(=O)NCCCC[C@@H](C(N)=O)NC(=O)[C@H](Cc2c[nH]c3ccccc23)NC(=O)[C@H](CCCNC(=N)N)NC(=O)[C@@H](Cc2ccccc2)NC(=O)[C@H](Cc2c[nH]cn2)NC1=O [indium-111 labelled]
tumour to blood ratio (C57 mouse, female, B16/F1 melanoma; intravenous, 0.037 MBq, 24 h): 338

COc1cc(/C=C/C(=O)N2CCc3ccccc3C2)ccc1O[11CH3]
maximum uptake (PET-CT imaging; C57BL/6 mouse, male, liver; intravenous, dynamic scan over 60 min): 24.3 ± 0.16 %ID/cc

CC(C)(O)c1ncc([S@](N)(=O)=NC(=O)Nc2c3c(cc4c2CCC4)CCC3)s1
Tmax (healthy human; oral, 10 mg once daily, day 14, capsule formulation, median): 2.5 h

C[C@H]1NSc2nc(=O)c3[nH]ccc3n2Cc2ccc(Cl)cc21
exposure ratio (female rats, plasma; 125 mg/kg, human dose 10 mg; relative to: rat over human): not detected

COc1ccc(N2CCOCC2)c2sc(NC(=O)c3ccnc(CN4CCCC4)c3)nc12
pKa (basic) (photometric titration): 8.6

CCCC[C@H](NC(=O)CNC(=O)CNC(=O)CN1CCN(CC(=O)O)CCN(CC(=O)O)CC1)C(=O)N[C@H]1CC(=O)NCCCC[C@@H](C(N)=O)NC(=O)[C@H](Cc2c[nH]c3ccccc23)NC(=O)[C@H](CCCNC(=N)N)NC(=O)[C@@H](Cc2ccccc2)NC(=O)[C@H](Cc2c[nH]cn2)NC1=O [copper-64 labelled]
uptake ratio (female C57 mouse, B16/F1 melanoma; intravenous, 0.037 MBq, 4 h; relative to: tumour over liver): 16.9

CCN1/C(=C/C=C2\CCCC(/C=C/C3=[N+](CC)c4ccccc4C3(C)C)=C2NCCCCCCCCN2CCC(Nc3nc4ccccc4n3Cc3ccc(F)cc3)CC2)C(C)(C)c2ccccc21
aggregate particle size range (dynamic light scattering; saline and PBS, various pH): 200 to 1000 nm

CC(C)[C@H](NC(=O)[C@@H]1CCCN1C(=O)[C@H](CCCNC(=N)N)NC(=O)[C@H](CS)NC(=O)[C@H](Cc1c[nH]c2ccccc12)NC(=O)[C@H](CCCNC(=N)N)NC(=O)[C@@H](Cc1ccccc1)NC(=O)[C@H](Cc1c[nH]cn1)NC(=O)[C@H](CCC(=O)O)NC(=O)[C@H](CS)NC(=O)[C@H](CS)NC(=O)[C@@H]1CC(=O)N[C@@H](CCCNC(=N)N)C(=O)NCC(=O)N[C@@H](CC(=O)O)C(=O)N[C@H](Cc2ccc(O)cc2)C(=O)N1)C(N)=O [technetium-99m labelled]
tumour-to-tissue ratio (C57 mice B16/F1 melanoma female; iv, 2 h, added: NDP-MSH blockade; relative to: tumour over liver): 2.11

CNC(=O)N[C@]1(C)CCC[C@@]2(C)C3CC[C@@]4(C)C[C@]3(CCC21)CC4=O (single isomer, unassigned)
relative error (rat plasma; 1.5 ng/mL, freeze-thaw stability, three cycles; relative to: nominal concentration): -2%

O=c1nc(NO)ccn1[C@@H]1O[C@H](CO)[C@@H](O)[C@H]1O
mRNA level (RT-PCR, item: CYP3A18; normal rat, liver; oral, 80 mg/kg twice daily, 5 days; relative to: untreated rats): < 0.1 fold

Oc1ccc2ccccc2c1/N=N/c1ccccc1
measured concentration (extracted rat blood QC samples; 0.5 µg/L, 12 h, room temperature, short-term stability): 0.521 µg/L

O=C([O-])CN1CCN(CC(=O)[O-])CCN(CC(=O)NCCc2ccc3c(c2)C2C=CCC2C(c2cc4c(cc2Br)OCO4)N3)CCN(CC(=O)[O-])CC1.[111In+3] (stereo not shown)
tissue uptake (mice with Hec50 tumour xenograft, heart; 2 h, added: G-1 5 µg blocking): 0.19 ± 0.03 %ID/g

COc1cccc(CNC[C@](O)(COCc2ccccc2)[C@@H]2CC[C@@H](C)C[C@H]2OCc2ccccc2)c1
permeability (PAMPA-GI; phosphatidylcholine-cholesterol membrane; 500 µM, 4 h, pH 6.5, 37 °C, 5% DMSO): 7.5 ± 0.3 ×10⁻⁶ cm/s

CN1CCN(Cc2ccc([C@H]3C[C@@]4(C)[C@@H](CC[C@@]4(O)C(F)(F)C(F)(F)F)[C@@H]4CCC5=CC(=O)CCC5=C43)cc2)CC1
maximal oral bioavailability (human liver microsomes; 100 % absorption assumed): 57%

CC1=CC(C)(C)N=C2C=CC(=O)C=C12
tissue residue (LC-MS/MS; laying hens, skin and fat; oral in feed, 50 mg/kg feed ethoxyquin, 56 days): 25.6 ± 9.4 ng/g

C#CCOc1ccc(/C=C2\SC(=O)N(CC(=O)NCc3ccccc3)C2=O)cc1
Kirkwood-Buff integral G1,3 (inverse Kirkwood-Buff integrals; binary solvent mixture; 298.15 K, mole fraction x1 0.60): -260 cm³/mol

CC[C@H](C)[C@H](NC(=O)[C@@H]1CCCN1C(=O)CNC(=O)[C@H](Cc1ccccc1)NC(=O)[C@H](CC(N)=O)NC(=O)[C@H](CC(N)=O)NC(=O)[C@H](CO)NC(=O)[C@H](CO)NC(=O)[C@H](Cc1c[nH]cn1)NC(=O)[C@@H](NC(=O)[C@H](CC(C)C)NC(=O)[C@H](Cc1ccccc1)NC(=O)[C@H](CC(N)=O)NC(=O)[C@H](C)NC(=O)[C@H](CC(C)C)NC(=O)[C@H](CCCNC(=N)N)NC(=O)[C@H](CCC(N)=O)NC(=O)[C@@H](NC(=O)[C@H](C)NC(=O)[C@@H]1CSSC[C@H](NC(=O)[C@@H](N)CCCCN)C(=O)N[C@@H](CC(N)=O)C(=O)N[C@@H]([C@@H](C)O)C(=O)N[C@@H](C)C(=O)N[C@@H]([C@@H](C)O)C(=O)N1)[C@@H](C)O)C(C)C)C(=O)N[C@@H](CC(C)C)C(=O)N[C@@H](CO)C(=O)N[C@@H](CO)C(=O)N[C@H](C(=O)N[C@@H](CC(N)=O)C(=O)N[C@H](C(=O)NCC(=O)N[C@@H](CO)C(=O)N[C@@H](CC(N)=O)C(=O)N[C@H](C(=O)N[C@@H](Cc1ccc(O)cc1)C(N)=O)[C@@H](C)O)C(C)C)[C@@H](C)O
collision cross section (ion mobility mass spectrometry; nitrogen drift gas; dimer charge +5, second conformer): 884 ± 14.6 Å²

Br.Br.Br.O=c1c(O)cccn1CCN1CCN(CCn2cccc(O)c2=O)CCN(CCn2cccc(O)c2=O)CC1
pKa (potentiometric titration; hydroxypyridinone group; pKa3): 7.5

CC(C)(C)[C@H](NC(=O)[C@H](CCONC(=N)N)NC(=O)Cc1ccc(CNC(=N)N)cc1)C(=O)N[C@@H](CCONC(=N)N)C(=O)NCc1ccc(C(=N)N)cc1
depletion (human liver microsomes 0.7 mg/mL; 50 µM, 10 min, pH 7.4): 12.1%

Repeated from above:
O=c1nc(NO)ccn1[C@@H]1O[C@H](CO)[C@@H](O)[C@H]1O
mRNA level (RT-PCR, item: CYP3A18; normal rat, liver; oral, 80 mg/kg twice daily, 5 days; relative to: untreated rats): < 0.1 fold

COCC1CN(C2CCN(c3cc(OC)c(Nc4ncc(Br)c(Nc5ccc6c(c5P(C)(C)=O)OCCO6)n4)cc3C)CC2)C1
treatment-related ALT increased, all grades (human patients; oral, 10 to 240 mg once daily): 22.2%
